{"data": "Experimental data gathered from unrelated publications", "note": "Protocols differ between the studies behind these lines. “And” joins repeats or separate records; there may be more than shown. ± marks the error that the study gave."}
{"Structure (SMILES)": "Nc1nc2cc(CC[C@H]3C[C@@H](n4ccc5c(N)ncnc54)[C@H](O)[C@@H]3O)ccc2cc1Br", "test system": "NCI-H1048 xenograft, mouse", "conditions": "3.0 mg/kg/day, day 28", "measurement": "tumour volume", "result": "1010 ± 249 mm3"}
{"Structure (SMILES)": "CCC(CC)n1c(Cc2ccco2)nc2cc(C(=O)N[C@@H](CC(=O)O)c3ccccc3)ccc21", "test system": "mouse, HFpEF model (HFD plus L-NAME)", "conditions": "ip, 20 mg/kg/day, 2 wk", "measurement": "lung wet/dry weight ratio", "result": "decreased"}
{"Structure (SMILES)": "CCCCCCCCCCCCCCCC(=O)OCC(CSC[C@H](N)C(=O)N[C@@H](CO)C(=O)N[C@@H](CCCCN)C(=O)N[C@@H](CCCCN)C(=O)N[C@@H](CCCCN)C(=O)N[C@@H](CCCCN)C(=O)NCCCCCC(=O)N[C@@H](CCCCN)C(=O)N[C@@H](CC(C)C)C(=O)N[C@H](C(=O)N[C@@H](Cc1ccccc1)C(=O)N[C@@H](Cc1ccccc1)C(=O)N[C@@H](Cc1ccc2ccccc2c1)C(=O)O)C(C)C)OC(=O)CCCCCCCCCCCCCCC (stereo partly drawn)", "test": "thioflavin S staining", "test system": "APP/PS1 transgenic mouse, hippocampus", "conditions": "intrahippocampal, unit not given", "how to read": "relative to: injected over adjacent side", "measurement": "amyloid plaque load", "result": "2.29e-05 and 0.000524 and 0.0105 and 7.49e-05 and 0.448"}
{"Structure (SMILES)": "CC(C)(C)NCC(SS(=O)(=O)O)c1ccccc1 (stereo not drawn)", "test system": "Schistosoma mansoni-infected mice", "conditions": "600 mg/kg single, day 7, perfusion day 44", "measurement": "liver weight", "result": "2.11 g"}
{"Structure (SMILES)": "Oc1cc2c(cc1O)C(c1cccc3ccccc13)NCC2 (stereo not drawn)", "test": "ABTS scavenging", "conditions": "10 min, dark", "measurement": "IC50", "result": "14.2 µM"}
{"Structure (SMILES)": "CC(=O)[O-].O.O.O.O.[Ni+2].[O-]c1ccc(Br)cc1C=NCCN1CCOCC1", "test": "DPPH radical scavenging", "conditions": "160 µM", "measurement": "inhibition", "result": "38.3%"}
{"Structure (SMILES)": "COc1ccc(NC(=O)c2ccc3[nH]c(-c4ccc(N(C)C)cc4)nc3c2)cn1", "test system": "CT26, BALB/c nude mice, subcutaneous graft", "conditions": "dose not given, day 11", "measurement": "tumour volume", "result": "2260 mm3 and 1600 mm3 and 996 mm3 and 1180 mm3 and 1860 mm3"}
{"Structure (SMILES)": "NC[C@@H](C(=O)Nc1ccc(-c2cn[nH]c2)cc1)c1ccccc1", "test": "tonometry", "test system": "NZW rabbit, magnetic bead-induced ocular hypertension", "conditions": "ocular, 0.1%, 28 h", "measurement": "IOP", "result": "29 mmHg"}
{"Structure (SMILES)": "COC1OC(C)C(OC2OC(C)C(OS(=O)(=O)O)C(OC3OC(C)C(OC4OC(C)C(OS(=O)(=O)O)C(OC5OC(C)C(OC6OC(C)C(OS(=O)(=O)O)C(OC7OC(C)C(OC8OC(C)C(OS(=O)(=O)O)C(OC9OC(C)C(OC%10OC(C)C(OS(=O)(=O)O)C(OS(=O)(=O)O)C%10O)C(OS(=O)(=O)O)C9O)C8O)C(OS(=O)(=O)O)C7O)C6O)C(OS(=O)(=O)O)C5O)C4O)C(OS(=O)(=O)O)C3O)C2O)C(OS(=O)(=O)O)C1O (stereo not drawn)", "test system": "human plasma", "conditions": "128 µg/mL", "measurement": "prothrombin time", "result": "14.7 ± 0.2 s"}
{"Structure (SMILES)": "COc1cc(N2CCN(C(=O)C3CCCN3)CC2)ccc1Nc1ncc(Cl)c(Nc2ccccc2P(C)(C)=O)n1 (stereo not drawn)", "test system": "nude mice, NCI-H3122 xenograft", "conditions": "oral, 25 mg/kg every two days, day 11", "measurement": "tumour volume", "result": "324 mm3 and 147 mm3 and 33.7 mm3 and 143 mm3 and 231 mm3"}
{"Structure (SMILES)": "CC(C)N1C/C(=C\\c2cc(Cl)c(O)c(Cl)c2)C(=O)/C(=C/c2cc(Cl)c(O)c(Cl)c2)C1", "test": "ABTS scavenging", "conditions": "20 min", "measurement": "IC50", "result": "57.8 µg/mL"}
{"Structure (SMILES)": "CC(C)C[C@H](NC(=O)[C@H](CC(=O)O)NC(=O)CNC(=O)[C@@H](N)CCCNC(=N)N)C(=O)N[C@@H](C)C(=O)N[C@H](C(=O)N[C@@H](CC(C)C)C(=O)N[C@@H](CCCNC(=N)N)C(=O)N[C@@H](CCC(N)=O)C(=O)N[C@@H](CC(C)C)C(=O)N[C@@H](C)C(=O)N[C@@H](CCC(N)=O)C(=O)N[C@@H](CCC(=O)O)C(=O)N[C@@H](CC(=O)O)C(=O)NCC(=O)N[C@H](C(=O)N[C@H](C(=O)NCC(=O)N[C@H](C(=O)N[C@@H](CCCNC(=N)N)C(=O)NCCOCCOCCOCCOCCOCCOCCOCCOCCOCCOCCOCCOCCC(=O)N[C@@H](CS)C(N)=O)C(C)C)C(C)C)C(C)C)[C@@H](C)O", "test": "ex vivo NIR imaging", "test system": "NOD/SCID mice, xenograft, H2009 xenograft", "conditions": "intravenous, 30 µg, 24 h", "how to read": "relative to: H460 xenograft", "measurement": "fluorescence signal ratio", "result": "21.5 and 49.5 and 20.8"}
{"Structure (SMILES)": "COC1OC(C)C(OC2OC(C)C(OS(=O)(=O)O)C(OC3OC(C)C(OS(=O)(=O)O)C(OS(=O)(=O)O)C3O)C2O)C(OS(=O)(=O)O)C1O (stereo not drawn)", "test system": "human plasma", "conditions": "128 µg/mL", "how to read": "relative to: control", "measurement": "prothrombin time prolongation", "result": "1.01 fold"}
{"Structure (SMILES)": "CCN(C(=O)c1cc(F)ccc1Oc1nncnc1N1CCC2(C1)CN([C@H](CCCN(C)CCOC)C(C)C)C2)C(C)C", "test system": "mouse, sample A AML PDX model", "conditions": "30 mg/kg", "measurement": "increase in life span", "result": "108%"}
{"Structure (SMILES)": "O=C(NS(=O)(=O)c1cccs1)c1cc2ccccc2n1Cc1ccc(Br)c2ccccc12", "test system": "mouse, acute hyperuricaemia model", "conditions": "1 mg/kg", "measurement": "serum uric acid", "result": "205 ± 26.5 µM"}
{"Structure (SMILES)": "COC1OC(C)C(OS(=O)(=O)O)C(OC2OC(C)C(OS(=O)(=O)O)C(OC3OC(C)C(OS(=O)(=O)O)C(OC4OC(C)C(OS(=O)(=O)O)C(OC5OC(C)C(OS(=O)(=O)O)C(OC6OC(C)C(OS(=O)(=O)O)C(OS(=O)(=O)O)C6O)C5O)C4O)C3O)C2O)C1O (stereo not drawn)", "test system": "human plasma", "conditions": "128 µg/mL", "how to read": "relative to: control", "measurement": "prothrombin time prolongation", "result": "1 fold"}
{"Structure (SMILES)": "CC[C@H](C)NCC(SS(=O)(=O)O)c1ccccc1 (stereo partly drawn)", "test system": "Swiss Webster mice, Schistosoma mansoni infected", "conditions": "100 mg/kg", "how to read": "relative to: vehicle control", "measurement": "liver weight decrease", "result": "16%"}
{"Structure (SMILES)": "COC1OC(C)C(OC2OC(C)C(O)C(OC3OC(C)C(OC4OC(C)C(O)C(OC5OC(C)C(OC6OC(C)C(O)C(OC7OC(C)C(O)C(OS(=O)(=O)O)C7OS(=O)(=O)O)C6OS(=O)(=O)O)C(OS(=O)(=O)O)C5OS(=O)(=O)O)C4OS(=O)(=O)O)C(OS(=O)(=O)O)C3OS(=O)(=O)O)C2OS(=O)(=O)O)C(OS(=O)(=O)O)C1OS(=O)(=O)O (stereo not drawn)", "test system": "human plasma", "conditions": "128 µg/mL", "how to read": "relative to: control", "measurement": "prothrombin time prolongation", "result": "0.97 fold"}
{"Structure (SMILES)": "CC[C@H](C)[C@H](NC(=O)[C@@H](NC(=O)c1ccnc(Cl)c1Cl)C(C)(C)C)C(=O)N[C@H](C(=O)N[C@H](C(=O)N[C@H](C(=O)N[C@@H](CCC(N)=O)C(=O)N[C@@H](Cc1c[nH]cn1)C(=O)N[C@H](CC(C)C)C(=O)N[C@@H](CO)C(=O)NCCOCCOCC(=O)N[C@@H](CCCCNC(=O)CC[C@@H]1NC(=O)[C@@H](CCCNC(=N)N)NC(=O)[C@H](CCCNC(=N)N)NC(=O)[C@@H](CCCNC(=N)N)NC(=O)[C@H](CCCNC(=N)N)NC(=O)[C@H](Cc2ccc3ccccc3c2)NC(=O)[C@@H](Cc2ccccc2)NC1=O)C(N)=O)[C@@H](C)O)[C@@H](C)CC)C(C)(C)O", "test system": "mouse, acute lung injury, LPS-induced", "conditions": "intravenous, 5 mg/kg, added: LPS 10 mg/kg i.p.", "measurement": "lung tissue TNF-alpha level", "result": "inhibited"}
{"Structure (SMILES)": "COC1OC(C)C(OS(=O)(=O)O)C(OC2OC(C)C(OS(=O)(=O)O)C(OC3OC(C)C(OS(=O)(=O)O)C(OC4OC(C)C(OS(=O)(=O)O)C(OC5OC(C)C(OS(=O)(=O)O)C(OC6OC(C)C(OS(=O)(=O)O)C(OC7OC(C)C(OS(=O)(=O)O)C(OC8OC(C)C(OS(=O)(=O)O)C(OC9OC(C)C(OS(=O)(=O)O)C(OC%10OC(C)C(OS(=O)(=O)O)C(OC%11OC(C)C(OS(=O)(=O)O)C(OC%12OC(C)C(OS(=O)(=O)O)C(OS(=O)(=O)O)C%12O)C%11O)C%10O)C9O)C8O)C7O)C6O)C5O)C4O)C3O)C2O)C1O (stereo not drawn)", "test system": "human plasma", "conditions": "128 µg/mL", "measurement": "prothrombin time", "result": "14.6 ± 0.2 s"}
{"Structure (SMILES)": "COC1CN([C@H]2CC[C@H]([C@@]3(C)Oc4c(Cl)cc(C(=O)NCc5c(SC)cc(C)[nH]c5=O)c(C)c4O3)CC2)C1", "test": "RNA-seq, item: HOMER3 mouse homolog", "test system": "mouse, HT-1376 xenograft, whole blood", "conditions": "dose not given", "how to read": "relative to: vehicle", "measurement": "log2 fold change", "result": 0.386}
{"Structure (SMILES)": "COC1OC(C)C(O)C(OC2OC(C)C(O)C(OC3OC(C)C(O)C(OC4OC(C)C(O)C(OS(=O)(=O)O)C4OS(=O)(=O)O)C3OS(=O)(=O)O)C2OS(=O)(=O)O)C1OS(=O)(=O)O (stereo not drawn)", "test system": "human plasma", "conditions": "128 µg/mL", "measurement": "prothrombin time", "result": "14.8 ± 0.1 s"}
{"Structure (SMILES)": "COc1cnc2cccc(N3CCc4c(cc(Cn5ccnc5)cc4-c4cn(C)nc4C(F)(F)F)C3=O)c2c1", "test system": "BALB/c nude mice, MV4-11 xenograft", "conditions": "intraperitoneal, 100 mg/kg, day 17", "measurement": "tumour volume", "result": "105 mm3 and 103 mm3 and 144 mm3 and 164 mm3 and 120 mm3"}
{"Structure (SMILES)": "COC1OC(C)C(OS(=O)(=O)O)C(OC2OC(C)C(OS(=O)(=O)O)C(OC3OC(C)C(OS(=O)(=O)O)C(OS(=O)(=O)O)C3OS(=O)(=O)O)C2OS(=O)(=O)O)C1OS(=O)(=O)O (stereo not drawn)", "test system": "human plasma", "conditions": "128 µg/mL", "measurement": "prothrombin time", "result": "15.2 ± 0.5 s"}
{"Structure (SMILES)": "CN1CCC[C@]1(C)/C=C/S(=O)(=O)NC(=O)Nc1c2c(cc3c1CCC3)CCC2", "test system": "human, whole blood ex vivo", "conditions": "50 mg twice daily, day 14, 12 h, multiple ascending dose, added: LPS and ATP", "measurement": "IL-1β inhibition", "result": "99.1%"}
{"Structure (SMILES)": "Cc1cccc(C)c1CNc1cc(C(=O)N2CCC2)cn2c(C)c(C)nc12", "test": "gastric acid secretion, inhibitor", "test system": "rat, pylorus-ligated", "conditions": "oral, added: histamine", "measurement": "ED50", "result": "0.66 mg/kg"}
{"Structure (SMILES)": "COC1OC(C)C(OC2OC(C)C(OS(=O)(=O)O)C(OC3OC(C)C(OC4OC(C)C(OS(=O)(=O)O)C(OS(=O)(=O)O)C4OS(=O)(=O)O)C(OS(=O)(=O)O)C3OS(=O)(=O)O)C2OS(=O)(=O)O)C(OS(=O)(=O)O)C1OS(=O)(=O)O (stereo not drawn)", "test system": "human plasma", "conditions": "128 µg/mL", "how to read": "relative to: control", "measurement": "prothrombin time prolongation", "result": "1 fold"}
